Experimental data pooled from the literature.
Each numbered part is a random draw from the data of one study; scales do not carry over between parts.
UniProt P07949, sequence (whole entry, unmodified, looked up): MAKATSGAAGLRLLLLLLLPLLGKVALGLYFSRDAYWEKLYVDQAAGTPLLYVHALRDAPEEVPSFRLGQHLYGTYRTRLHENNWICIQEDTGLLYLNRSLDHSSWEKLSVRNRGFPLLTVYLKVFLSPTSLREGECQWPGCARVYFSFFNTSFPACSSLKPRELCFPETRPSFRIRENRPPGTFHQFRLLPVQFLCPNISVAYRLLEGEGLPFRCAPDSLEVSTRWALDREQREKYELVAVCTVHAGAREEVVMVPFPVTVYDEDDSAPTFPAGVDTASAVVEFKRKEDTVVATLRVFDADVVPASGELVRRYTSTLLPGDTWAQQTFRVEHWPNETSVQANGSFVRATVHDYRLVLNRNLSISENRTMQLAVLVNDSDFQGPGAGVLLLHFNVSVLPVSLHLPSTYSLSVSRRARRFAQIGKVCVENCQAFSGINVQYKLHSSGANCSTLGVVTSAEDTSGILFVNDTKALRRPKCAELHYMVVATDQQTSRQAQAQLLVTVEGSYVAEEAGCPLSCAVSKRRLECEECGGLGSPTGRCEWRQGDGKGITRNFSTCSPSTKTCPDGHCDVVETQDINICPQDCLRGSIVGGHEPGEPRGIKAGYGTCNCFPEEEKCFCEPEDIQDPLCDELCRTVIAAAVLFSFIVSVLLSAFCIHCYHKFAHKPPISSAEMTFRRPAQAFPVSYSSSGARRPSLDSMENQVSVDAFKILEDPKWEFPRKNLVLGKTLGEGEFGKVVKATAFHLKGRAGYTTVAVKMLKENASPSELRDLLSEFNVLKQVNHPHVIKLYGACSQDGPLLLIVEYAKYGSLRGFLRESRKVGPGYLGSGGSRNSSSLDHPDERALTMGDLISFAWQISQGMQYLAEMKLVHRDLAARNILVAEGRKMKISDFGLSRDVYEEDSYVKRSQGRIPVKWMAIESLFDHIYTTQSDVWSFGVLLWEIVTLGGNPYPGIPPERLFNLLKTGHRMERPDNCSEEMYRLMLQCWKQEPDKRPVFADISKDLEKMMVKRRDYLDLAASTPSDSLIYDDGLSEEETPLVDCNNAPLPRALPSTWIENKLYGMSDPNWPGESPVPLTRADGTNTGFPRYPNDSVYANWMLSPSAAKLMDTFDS
UniProt Q8TD19, sequence (whole entry, looked up): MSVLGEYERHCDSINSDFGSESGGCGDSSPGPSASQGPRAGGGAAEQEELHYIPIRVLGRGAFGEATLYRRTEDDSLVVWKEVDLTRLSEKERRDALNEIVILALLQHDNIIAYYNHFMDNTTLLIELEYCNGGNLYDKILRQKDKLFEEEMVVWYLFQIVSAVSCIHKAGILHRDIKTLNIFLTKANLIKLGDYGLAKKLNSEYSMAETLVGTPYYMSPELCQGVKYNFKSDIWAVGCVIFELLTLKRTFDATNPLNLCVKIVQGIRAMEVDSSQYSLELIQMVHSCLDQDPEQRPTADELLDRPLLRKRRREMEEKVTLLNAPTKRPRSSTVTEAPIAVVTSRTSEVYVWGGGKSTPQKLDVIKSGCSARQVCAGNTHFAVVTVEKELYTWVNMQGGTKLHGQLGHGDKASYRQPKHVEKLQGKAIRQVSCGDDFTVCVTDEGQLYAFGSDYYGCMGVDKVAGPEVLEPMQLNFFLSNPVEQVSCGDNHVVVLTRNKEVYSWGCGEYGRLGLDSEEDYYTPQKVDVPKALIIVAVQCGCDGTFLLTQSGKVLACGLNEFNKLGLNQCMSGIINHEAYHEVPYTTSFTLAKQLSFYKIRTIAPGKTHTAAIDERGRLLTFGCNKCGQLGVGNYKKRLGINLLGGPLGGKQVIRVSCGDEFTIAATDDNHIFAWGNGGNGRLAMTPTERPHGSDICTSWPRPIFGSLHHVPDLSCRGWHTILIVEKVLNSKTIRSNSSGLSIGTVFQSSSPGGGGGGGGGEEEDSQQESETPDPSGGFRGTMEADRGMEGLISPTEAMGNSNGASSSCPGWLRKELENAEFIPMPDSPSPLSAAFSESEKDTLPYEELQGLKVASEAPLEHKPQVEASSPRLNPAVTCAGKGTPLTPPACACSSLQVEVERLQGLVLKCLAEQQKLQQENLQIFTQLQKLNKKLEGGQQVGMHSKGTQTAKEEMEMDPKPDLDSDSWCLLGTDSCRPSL
UniProt P15735, sequence (whole entry, looked up): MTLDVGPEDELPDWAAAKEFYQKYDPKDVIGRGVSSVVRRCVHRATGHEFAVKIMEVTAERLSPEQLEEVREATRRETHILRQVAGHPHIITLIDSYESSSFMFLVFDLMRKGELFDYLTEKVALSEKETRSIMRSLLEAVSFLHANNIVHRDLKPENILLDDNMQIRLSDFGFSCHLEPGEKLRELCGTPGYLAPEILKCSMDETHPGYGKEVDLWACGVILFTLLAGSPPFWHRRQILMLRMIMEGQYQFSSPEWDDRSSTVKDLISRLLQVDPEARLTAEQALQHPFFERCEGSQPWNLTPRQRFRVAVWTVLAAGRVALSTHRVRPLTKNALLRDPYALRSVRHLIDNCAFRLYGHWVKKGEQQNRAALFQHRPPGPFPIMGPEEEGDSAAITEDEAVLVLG
UniProt Q9UKI8, sequence (whole entry, looked up): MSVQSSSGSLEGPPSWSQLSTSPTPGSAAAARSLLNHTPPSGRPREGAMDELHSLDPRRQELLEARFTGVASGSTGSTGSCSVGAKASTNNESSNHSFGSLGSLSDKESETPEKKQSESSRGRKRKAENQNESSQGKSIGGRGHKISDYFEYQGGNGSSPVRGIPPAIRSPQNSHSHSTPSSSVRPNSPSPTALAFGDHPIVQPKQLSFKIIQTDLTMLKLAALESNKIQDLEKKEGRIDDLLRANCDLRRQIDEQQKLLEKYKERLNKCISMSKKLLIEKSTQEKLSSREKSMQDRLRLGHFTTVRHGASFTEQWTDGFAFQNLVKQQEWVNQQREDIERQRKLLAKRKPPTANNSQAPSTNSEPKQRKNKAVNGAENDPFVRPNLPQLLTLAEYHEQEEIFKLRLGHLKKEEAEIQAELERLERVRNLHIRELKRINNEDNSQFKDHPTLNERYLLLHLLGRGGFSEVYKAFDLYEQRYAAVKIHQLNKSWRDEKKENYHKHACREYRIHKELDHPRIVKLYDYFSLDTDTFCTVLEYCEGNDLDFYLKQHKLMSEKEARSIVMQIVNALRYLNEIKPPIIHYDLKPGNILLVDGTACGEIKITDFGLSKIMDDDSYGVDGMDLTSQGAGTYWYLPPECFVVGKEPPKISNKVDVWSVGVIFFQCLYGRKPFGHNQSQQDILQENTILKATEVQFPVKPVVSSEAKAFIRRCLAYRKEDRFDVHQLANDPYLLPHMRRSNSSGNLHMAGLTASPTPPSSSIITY
UniProt Q16816, sequence (whole entry, looked up): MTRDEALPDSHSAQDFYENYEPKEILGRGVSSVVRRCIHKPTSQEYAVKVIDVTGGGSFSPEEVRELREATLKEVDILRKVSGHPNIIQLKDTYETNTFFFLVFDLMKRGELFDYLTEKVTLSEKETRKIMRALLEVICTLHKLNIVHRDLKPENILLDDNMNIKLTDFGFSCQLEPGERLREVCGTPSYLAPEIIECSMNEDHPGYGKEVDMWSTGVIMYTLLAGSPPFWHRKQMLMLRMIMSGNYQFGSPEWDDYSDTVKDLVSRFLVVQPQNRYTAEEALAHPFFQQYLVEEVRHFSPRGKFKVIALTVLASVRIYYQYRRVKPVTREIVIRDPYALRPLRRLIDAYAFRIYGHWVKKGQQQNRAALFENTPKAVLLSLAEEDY
UniProt Q9Y243, sequence (whole entry, looked up): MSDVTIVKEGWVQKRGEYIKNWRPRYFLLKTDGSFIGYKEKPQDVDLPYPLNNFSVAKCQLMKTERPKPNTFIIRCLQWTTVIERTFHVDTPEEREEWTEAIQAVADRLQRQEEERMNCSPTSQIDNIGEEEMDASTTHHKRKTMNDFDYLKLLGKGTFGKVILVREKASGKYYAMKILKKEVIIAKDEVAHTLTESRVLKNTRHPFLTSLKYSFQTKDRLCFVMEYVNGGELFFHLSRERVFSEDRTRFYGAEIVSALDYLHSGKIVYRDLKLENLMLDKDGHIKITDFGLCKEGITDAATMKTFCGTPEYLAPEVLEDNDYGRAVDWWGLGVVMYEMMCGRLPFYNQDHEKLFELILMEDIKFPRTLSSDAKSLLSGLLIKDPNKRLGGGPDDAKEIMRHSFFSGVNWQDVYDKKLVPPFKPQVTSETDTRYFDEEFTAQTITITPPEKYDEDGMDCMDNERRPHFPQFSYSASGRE
UniProt P46734, sequence (whole entry, looked up): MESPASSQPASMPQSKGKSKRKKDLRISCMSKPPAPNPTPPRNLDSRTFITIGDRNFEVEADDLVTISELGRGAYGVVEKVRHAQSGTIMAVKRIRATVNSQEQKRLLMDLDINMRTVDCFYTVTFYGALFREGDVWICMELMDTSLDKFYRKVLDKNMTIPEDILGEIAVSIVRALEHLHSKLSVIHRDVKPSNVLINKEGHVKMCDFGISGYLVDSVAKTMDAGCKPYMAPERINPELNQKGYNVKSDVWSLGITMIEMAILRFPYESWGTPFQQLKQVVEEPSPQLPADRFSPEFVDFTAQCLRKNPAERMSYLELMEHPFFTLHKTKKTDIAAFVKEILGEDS

Study 1
Technique: logD(dd/w) and ALogP
Setting: JT method
Under “lipophilic permeability efficiency”, `CC(C)C[C@@H]1NC(=O)[C@H](CC(C)C)NC(=O)[C@H](CC(C)C)NC(=O)[C@H](C(C)C)NC(=O)[C@H](C(C)C)NC(=O)[C@H](C)NC(=O)[C@H](C)NC1=O` is recorded as 2.49.
`CC(C)C[C@@H]1NC(=O)[C@H](C)NC(=O)[C@@H](CC(C)C)NC(=O)[C@H](C)NC(=O)[C@H](CC(C)C)NC(=O)[C@H](CC(C)C)NC(=O)[C@@H](CC(C)C)NC1=O`: “lipophilic permeability efficiency” 2.8.
`CC(C)C[C@@H]1NC(=O)[C@H](C)NC(=O)[C@@H](CC(C)C)NC(=O)[C@@H](CCC(=O)N2CCCC2)NC(=O)[C@H](CC(C)C)NC(=O)[C@@H](CC(C)C)NC(=O)[C@H](CC(C)C)NC1=O`: “lipophilic permeability efficiency” 2.23.
For `CC(C)C[C@@H]1NC(=O)[C@H](C)NC(=O)[C@@H](CC(C)C)NC(=O)[C@H](CC(C)C)NC(=O)[C@@H](Cc2cscn2)NC(=O)[C@H](CC(C)C)NC(=O)[C@@H](CC(C)C)NC1=O`, “lipophilic permeability efficiency” read 0.792.
`CC(C)C[C@@H]1NC(=O)[C@H](C)NC(=O)[C@H](CCC(=O)N2CCCC2)NC(=O)[C@H](CC(C)C)NC(=O)[C@H](C(C)C)NC(=O)[C@H](CC(C)C)NC(=O)[C@@H](CC(C)C)NC1=O` — result for “lipophilic permeability efficiency”: 1.86.
For `CC(C)C[C@@H]1NC(=O)[C@H](C)NC(=O)[C@H](C)NC(=O)[C@H](CCC(=O)N2CCCC2)NC(=O)[C@H](CC(C)C)NC(=O)[C@H](CC(C)C)NC(=O)[C@@H](CC(C)C)NC1=O`, “lipophilic permeability efficiency” read 1.57.

Study 2
Organism: Sarcocystis neurona
Effect on: parasite growth
Concentration: 10 µM
Time: 96 h
Relative to: untreated
`C[C@H]1C[C@@H]2[C@H]([C@@H](O)C[C@@]3(C)[C@H]2CC[C@]3(O)C(=O)CO)[C@@]2(C)C=CC(=O)C=C12`: “log2 fold change” 0.26.
Under “log2 fold change”, `CO[C@H]1/C=C/O[C@@]2(C)Oc3c(C)c(O)c4c(O)c(c(/C=N/N5CCN(C)CC5)c(O)c4c3C2=O)NC(=O)/C(C)=C\C=C\[C@H](C)[C@H](O)[C@@H](C)[C@@H](O)[C@@H](C)[C@H](OC(C)=O)[C@@H]1C` is recorded as 0.51.
For `CC(c1cc2ccccc2s1)N(O)C(N)=O` (stereo not drawn), “log2 fold change” read 0.59.
For `NS(=O)(=O)c1cc(C2(O)NC(=O)c3ccccc32)ccc1Cl` (stereo not drawn), “log2 fold change” read 0.27.

Study 3
SMILES: CN1CCN(c2cnc3c(C4CCN(C(=O)c5ccc(OC(F)(F)F)cc5N)CC4)ncnc3c2)CC1
Effect on: cell-free assay
Technique: competition with immobilised ligand
Concentration: 1 µM
The remaining binding was 100% (PHKG1 (Homo sapiens, UniProt Q16816)).
It gave 100% for remaining binding (PHKG2 (Homo sapiens, UniProt P15735)).
The remaining binding was 100% (FYN (Homo sapiens, UniProt P06241)).
It gave 68% for remaining binding (TSSK3 (Homo sapiens, UniProt Q96PN8)).
It gave 94% for remaining binding (MAP2K3 (Homo sapiens, UniProt P46734)).
For AKT3 (Homo sapiens, UniProt Q9Y243): remaining binding read 93%.
The remaining binding was 100% (Tyrosine-protein kinase ABL1, phosphorylated (ABL1, Homo sapiens, UniProt P00519, F317L)).
For NEK9 (Homo sapiens, UniProt Q8TD19): remaining binding read 100%.
It gave 100% for remaining binding (TLK1 (Homo sapiens, UniProt Q9UKI8)).
RET (Homo sapiens, UniProt P07949, V804L) — remaining binding: 97%.
For IRAK4 (Homo sapiens, UniProt Q9NWZ3): remaining binding read 90%.
For Ribosomal protein S6 kinase alpha-1, C-terminal kinase domain (RPS6KA1, Homo sapiens, UniProt Q15418): remaining binding read 100%.
The remaining binding was 100% (RET (Homo sapiens, UniProt P07949)).

Study 4
Target: Calcium/calmodulin-dependent protein kinase type II subunit alpha (CAMK2A, Homo sapiens, UniProt Q9UQM7)
UniProt Q9UQM7, sequence (whole entry, looked up): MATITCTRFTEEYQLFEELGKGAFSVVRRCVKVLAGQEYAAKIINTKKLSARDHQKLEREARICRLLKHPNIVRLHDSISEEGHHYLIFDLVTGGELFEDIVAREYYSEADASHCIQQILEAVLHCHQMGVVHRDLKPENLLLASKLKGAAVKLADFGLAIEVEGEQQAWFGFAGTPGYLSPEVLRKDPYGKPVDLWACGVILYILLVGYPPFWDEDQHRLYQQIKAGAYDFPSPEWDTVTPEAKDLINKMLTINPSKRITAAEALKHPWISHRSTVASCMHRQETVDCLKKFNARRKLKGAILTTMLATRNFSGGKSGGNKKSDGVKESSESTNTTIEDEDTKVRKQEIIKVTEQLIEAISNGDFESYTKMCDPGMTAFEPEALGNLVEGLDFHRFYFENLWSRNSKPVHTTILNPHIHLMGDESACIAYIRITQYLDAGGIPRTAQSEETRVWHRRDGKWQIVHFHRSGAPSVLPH
Effect on: enzyme activity
Mode: inhibitor
Concentration: 10 µM
For `Oc1ccc([C@H]2COc3cc(O)ccc3C2)cc1`, the inhibition was -57%.
`C[C@H]1O[C@H](O[C@H]2[C@H](O)[C@@H](O)[C@@H](O[C@@H]([C@H](O)[C@@H](O)C=O)[C@H](O)CO)O[C@@H]2CO)[C@H](O)[C@@H](O)[C@@H]1N[C@H]1C=C(CO)[C@@H](O)[C@H](O)[C@H]1O` has an inhibition of 59%.
For `CN1c2c(nc(N)[nH]c2=O)NCC1CNc1ccc(C(=O)N[C@@H](CCC(=O)O)C(=O)O)cc1` (stereo partly drawn), the inhibition was -31%.
`CS(=O)(=O)c1ccc(Oc2cc(F)cc(C#N)c2)c2c1[C@H](O)[C@H](F)[C@@H]2F` gave an inhibition of 1%.
`COc1cc(CCC(=O)CC(O)CCc2ccc(O)c(OC)c2)ccc1O` (stereo not drawn) has an inhibition of -13%.
`C[C@H](CC[C@@H](O[C@@H]1O[C@H](CO[C@@H]2O[C@H](CO)[C@@H](O)[C@H](O)[C@H]2O)[C@@H](O)[C@H](O)[C@H]1O)C(C)(C)O)[C@H]1CC[C@@]2(C)[C@@H]3CC=C4[C@@H](CC[C@H](O[C@@H]5O[C@H](CO)[C@@H](O)[C@H](O)[C@H]5O)C4(C)C)[C@]3(C)[C@H](O)C[C@]12C` has an inhibition of 19%.
With `CN(Cc1ccc(C(C)(C)C)cc1)Cc1cccc2ccccc12` the inhibition was -1%.

Repeated from above (study 3):
The remaining binding was 100% (FYN (Homo sapiens, UniProt P06241)).
It gave 68% for remaining binding (TSSK3 (Homo sapiens, UniProt Q96PN8)).
It gave 94% for remaining binding (MAP2K3 (Homo sapiens, UniProt P46734)).
For AKT3 (Homo sapiens, UniProt Q9Y243): remaining binding read 93%.
